Assay results from different studies.
Lines come from different studies, so protocols differ. ± gives the spread as reported.

With `Teicoplanin A2-2` the MIC was 0.12 µg/mL (Streptococcus pyogenes).
For `Polymyxin B`, the survival was 0% (mouse; intraperitoneal, 40 mg/kg single dose, day 2).
`nonaarginine` has a kon of 7e+06 ± 700000 M⁻¹ s⁻¹ (PorA peptide pore; peptide binding, planar bilayer single-channel recording; 0.5 µM, pH 7.4, +15 mV, trans side, 150 mM KCl).
For `colistin`, the MIC was 128 µg/mL (Staphylococcus aureus; USA300; alone, median and range).
The MIC of `thiostrepton` is reported as ≤ 0.03 µg/mL (Enterococcus faecium; VanB vancomycin-resistant).
The MIC of `tunicamycin` is reported as > 64 µg/mL (Enterobacter cloacae; broth microdilution, EUCAST; DSM 30054; 18 to 24 h, 37 °C).
The MIC of `Polymyxin B` is reported as 2 µg/mL (Pseudomonas aeruginosa; broth microdilution; ATCC 27853; 20 h).
`colistin` has an MIC of ≤ 0.12 µg/mL (Klebsiella pneumoniae; 1188718 multidrug-resistant).
For `aspterric acid`, the inhibition was 99.2% (root length; Arabidopsis thaliana Col-0 seeds; 25 µg/mL).
`colistin` has an MIC of 64 µg/mL (Klebsiella pneumoniae; broth microdilution; KPC-127 producing).
With `Polymyxin B` the MIC was 2 µM (Acinetobacter baumannii; broth microdilution, MH medium; carbapenem-resistant CCARM 12005; 16 h, 37 °C).
`Polymyxin B` has an MIC of 32 µg/mL (Klebsiella pneumoniae; broth microdilution; meropenem-selected KPC-2 strain).
`insulin human` has a fold change of 0.392 (item: PDK1 mRNA; uninfected mouse, brain; i.p., dose not given; baseline: PBS).

A few entries again:
For `aspterric acid`, the inhibition was 99.2% (root length; Arabidopsis thaliana Col-0 seeds; 25 µg/mL).
